# Results of several laboratories.
# Numbers after ± are the reported error.
SMILES,assay,system,setting,scale,measurement,value
CC[C@H](C)[C@H](NC(=O)[C@H](Cc1ccccc1)NC(=O)[C@H](CCC(=O)O)NC(=O)[C@H](CCCCNC(=O)COCCOCCNC(=O)COCCOCCNC(=O)CC[C@H](NC(=O)CCCCCCCCCCCCCCCCC(=O)O)C(=O)O)NC(=O)[C@H](C)NC(=O)[C@H](C)NC(=O)[C@H](CCC(N)=O)NC(=O)CNC(=O)[C@H](CCC(=O)O)NC(=O)[C@H](CC(C)C)NC(=O)[C@H](Cc1ccc(O)cc1)NC(=O)[C@H](CO)NC(=O)[C@H](CO)NC(=O)[C@@H](NC(=O)[C@H](CC(=O)O)NC(=O)[C@H](CO)NC(=O)[C@@H](NC(=O)[C@H](Cc1ccccc1)NC(=O)[C@@H](NC(=O)CNC(=O)[C@H](CCC(=O)O)NC(=O)C(C)(C)NC(=O)[C@@H](N)Cc1cnc[nH]1)[C@@H](C)O)[C@@H](C)O)C(C)C)C(=O)N[C@@H](C)C(=O)N[C@@H](Cc1c[nH]c2ccccc12)C(=O)N[C@@H](CC(C)C)C(=O)N[C@H](C(=O)N[C@@H](CCCNC(=N)N)C(=O)NCC(=O)N[C@@H](CCCNC(=N)N)C(=O)NCC(=O)O)C(C)C,,human lowest body weight,"0.5 mg once weekly, 39.7-60.2 kg",,average steady-state concentration,21.8 nmol/L
CNCc1ccc(-c2[nH]c3cc(F)cc4c3c2CCNC4=O)cc1,,"human cancer patients, plasma","intravenous, 8 mg/m2, day 1, with: temozolomide 100",,volume of distribution,299 L
CN1CC[C@@H](NC(=O)Nc2ccc(C#N)cc2)C[C@@H]1c1nc2ccccc2[nH]1,,"moderate hepatic impairment, plasma","oral, 100 mg single dose, fasted, geometric mean",,"AUC(0-inf), unbound",998 ng·h/mL
C[C@@H](Oc1ccc(S(C)(=O)=O)cc1C(=O)N1C[C@@H]2C[C@]2(c2cc(C(F)(F)F)on2)C1)C(F)(F)F,,"human, fasted","oral, 25 mg, tablet vs IV microtracer",,absolute bioavailability,71.6%
CC(C)C[C@@H]1NC(=O)[C@H](C)N(C)C(=O)[C@H](Cc2ccccc2)NCc2cc(c[nH]2)CNC1=O,,PAMPA,"100 µM, 17 h, pH 6.4",,Papp,0.0295 ×10⁻⁶ cm/s
CCN(CC)CCNC(=O)c1c(C)[nH]c(/C=C2\C(=O)Nc3ccc(F)cc32)c1C,,"human, plasma","oral, 20 mg/m2, day 7",,maximum trough plasma concentration,55.1 ng/mL
COc1cc2c(cc1OC)[C@@H]1Cc3ccc(OC)c(OC)c3CN1CC2,,rat plasma QC sample,"2 ng/mL nominal, 24 h, 23 °C, low QC level storage stability",,measured concentration,2 ± 0.11 ng/mL
Cc1cc(Nc2cc3ncccc3c(N[C@@H]3C[C@H]4CC[C@@H](C3)N4CCC#N)n2)n[nH]1,,"Balb/c mouse, male, colon","oral, 10 mg/kg, Cmax based",baseline: colon over plasma,tissue/plasma ratio,2640
CCCOc1ccc([C@H]2CNC(=O)N2c2ccc3[nH]cnc3c2)cc1,,"non-elderly adults, fasted, plasma","oral, 50 mg twice daily, day 11, oral solution, geometric mean",,terminal half-life,164 min
CC[C@H](C)[C@@H]1NC(=O)[C@H](Cc2ccc(O)cc2)NC(=O)[C@@H](N)CSSC[C@@H](C(=O)N2CCC[C@H]2C(=O)N[C@@H](CC(C)C)C(=O)NCC(N)=O)NC(=O)[C@H](CC(N)=O)NC(=O)[C@H](CCC(N)=O)NC1=O,ELISA,"male knockout mice, plasma","nasal, 12 µg",,half-life,32.4 ± 9.1 min
O=C(c1ccc(OCCN2CCCCC2)cc1)c1c(-c2ccc(O)cc2)sc2cc(O)ccc12,,"healthy humans, plasma","oral, 60 mg, with: acute green tea",,AUC(0-48 h),0.00591 µM·h
CC(C)=CCC[C@](C)(O[C@@H]1O[C@H](CO)[C@@H](O)[C@H](O)[C@H]1O)[C@H]1CC[C@]2(C)[C@@H]1[C@H](O)C[C@@H]1[C@@]3(C)CC[C@H](O)C(C)(C)[C@@H]3[C@@H](O[C@@H]3O[C@H](CO)[C@@H](O)[C@H](O)[C@H]3O)C[C@]12C,,"rat, extracted tissue homogenate QC samples","0.2 µg/mL, 24 h, 15 °C, autosampler",,post-preparative stability accuracy,96.2 ± 8.9%
NC(=O)c1[nH]c2ccc(Cl)cc2c1S(=O)(=O)c1ccccc1,,1% w/v cremophor in water,"120 h, ambient",,solubility,137 µg/mL
Cn1c(=O)c2c(ncn2Cc2nnc(SCC(=O)Nc3ccc(Cl)cc3)n2-c2ccccc2)n(C)c1=O,,bovine erythrocytes,"1 mg/mL, 30 min, pH 7.4, 37 °C",,haemolysis,7.2%
O=C(CCCCCCC(=O)Nc1ccccc1)NO,,"patients, serum","oral, 800 mg, cycle 1, with: flavopiridol",,AUC(0-7 h),18 µM·h
O=S(=O)(c1cccc2cnccc12)N1CCCNCC1,,"rat sham control, isolated perfused lung","pulmonary artery, 3 mg/kg, 2 h",,recovered dose in apparatus,8.7 ± 2.2%
CC(C)=CCC[C@](C)(O[C@@H]1O[C@H](CO)[C@@H](O)[C@H](O)[C@H]1O)[C@H]1CC[C@]2(C)[C@@H]1[C@H](O)C[C@@H]1[C@@]3(C)CC[C@H](O[C@@H]4O[C@H](CO)[C@@H](O)[C@H](O)[C@H]4O[C@@H]4O[C@H](CO)[C@@H](O)[C@H](O)[C@H]4O)C(C)(C)[C@@H]3CC[C@]12C,,"rat, extracted plasma QC samples","1.0 µg/mL, 24 h, 15 °C, autosampler",,post-preparative stability accuracy,96.8 ± 8%
CS(=O)(=O)n1cc2c(n1)CN([C@H]1CO[C@H](c3cc(F)ccc3F)[C@@H](N)C1)C2,,"healthy male human, plasma","oral, 50 mg once weekly, day 15, fasted, geometric mean",,concentration at 168 h,32.8 nM
C[C@@H](O)[C@H]1C(=O)N2C(C(=O)O)=C(S[C@@H]3CN[C@H](C(=O)N(C)C)C3)[C@H](C)[C@H]12,microdialysis,"pig, Danish Landrace, cancellous bone","intravenous, 1000 mg over 10 min, 450 min dosing interval, with: 0.25 µg/mL MIC",baseline: dosing interval,time above MIC,57%
CCCC[C@H](NC(C)=O)C(=O)N[C@H]1CCC(=O)NC[C@@H](C(=O)N[C@@H](Cc2c[nH]c3ccccc23)C(N)=O)NC(=O)[C@H](CCCNC(=N)N)NC(=O)[C@@H](Cc2ccccc2)NC(=O)[C@H](Cc2c[nH]cn2)NC1=O,,"beagle dog, male, plasma","subcutaneous, 40.0 mg/kg daily, day 14",,AUC(0-last),4760 ng·h/mL
COc1ccc(-c2cc(=O)c3c(OC)c(OC)c(OC)c(OC)c3o2)cc1,,"C57BL/6 mouse, male, plasma","oral, 1% w/w in diet, 6 weeks, orange peel extract diet",baseline: content in orange peel,tissue to peel content ratio,0.042%
COc1ccc(-c2nc(OCC(F)(F)F)nn2-c2ccc(OC)cc2)cc1 [carbon-11 labelled],PET,"rhesus monkey, whole brain","iv, dose not given, baseline",,peak brain radioactivity,4.29 SUV
CC(C)=CCC[C@](C)(O[C@@H]1O[C@H](CO)[C@@H](O)[C@H](O)[C@H]1O)[C@H]1CC[C@]2(C)[C@@H]1[C@H](O)C[C@@H]1[C@@]3(C)CC[C@H](O[C@@H]4O[C@H](CO)[C@@H](O)[C@H](O)[C@H]4O[C@@H]4O[C@H](CO)[C@@H](O)[C@H](O)[C@H]4O)C(C)(C)[C@@H]3CC[C@]12C,,"Sprague-Dawley rat, plasma","oral, 2000 mg/kg ginseng extract, diet with NUTRIOSE 2.5% for 2 weeks",,AUC,12900 ± 8090 ng·h/mL
COc1cccc2c1C(=O)c1c(O)c3c(c(O)c1C2=O)C[C@@](O)(C(=O)CO)C[C@@H]3O[C@H]1C[C@H](N)[C@H](O)[C@H](C)O1,,"mouse, E0771 tumour-bearing, liver","intravenous, 92 µmol/kg",,terminal half-life,1560 min
Cc1[nH]c(=O)c(CNC(=O)c2ccc(F)nc2)c2c1CCCC2,U-HPLC,20% DMSO in water,,,kinetic solubility,114 µg/mL
COc1ccc2cc3[n+](cc2c1OC)CCc1cc2c(cc1-3)OCO2,,rat plasma QC sample,"640 ng/mL nominal, 15 days, -80 °C, high QC level storage stability",,measured concentration,624 ± 13.1 ng/mL
Cc1nc2cccc(OCC(C)(C)C(=O)NC(C)C)c2c(N)c1C(=O)O,,"female Sprague-Dawley rat, plasma","intravenous, 1 mg/kg, single dose",,AUC(0-t),412 ng·h/mL
CSc1cc(C)nc(SC)c1NC(=O)CN1CCN(CCSc2nc3ccccc3[nH]2)CC1,,"mouse Crl:CD1 (ICR) female, cerebrum","intranasal repeated, 32.4 µg in 0.01 N HCl, 45 min",,concentration,2.1 ng/g
O=C(O)c1ccccc1Nc1ccc(CCc2ccc(Cl)c(Cl)c2)cc1,,extracellular recording solution,"pH 7.6, from 20 mM DMSO stock",,solubility limit,30 µM
Cc1cnc(NC(=O)C2=C(O)c3ccccc3S(=O)(=O)N2C)s1,,"Sprague-Dawley rat, male, liver","oral, 0.4 mg/kg, 6 h, single low dose",direction not given,hepatocyte vacuolization score,0
C[C@]12CC[C@@H]3c4ccc(O)cc4CC[C@H]3[C@@H]1C[C@@H](O)[C@@H]2O,GC-MS,"breast cancer women on NSAI, serum","vaginal, 0.03 mg, 6 h, day 0",,mean serum concentration,0 ng/mL
C#C[C@]1(CO)O[C@@H](n2cnc3c(N)nc(F)nc32)C[C@@H]1O,,"human, plasma","oral, 400 mg, single dose, fasted",,AUC(0-inf),48.3 µM·h
O=C(/C=C/c1cccc(S(=O)(=O)Nc2ccccc2)c1)NO,,"human severe liver dysfunction, plasma","intravenous, 400 mg/m^2, 30 min infusion, cycle 1 day -7",,volume of distribution steady-state,29.6 L/m²
CC(C)C[C@H](NC(=O)[C@H](CCCNC(=N)N)NC(=S)Nc1ccc(C[C@H]2CN(CC(=O)O)CCN(CC(=O)O)CCN2CC(=O)O)cc1)C(=O)N[C@@H](CC(N)=O)C(=O)N[C@H](C(=O)NCC(=O)NCC(=O)N[C@H](C(=O)N[C@@H](Cc1ccc(O)cc1)C(=O)N[C@@H](Cc1ccccc1)C(=O)N[C@@H](CC(C)C)C(=O)N[C@H](C(=O)N[C@H](C(=O)N[C@@H](CCCNC(=N)N)C(=O)N[C@@H](CCC(N)=O)C(=O)O)[C@@H](C)O)[C@@H](C)O)[C@@H](C)O)C(C)C [fluorine-18 labelled],reverse-phase HPLC,,,,HPLC retention time,14 min
O=C1N=C(N2CCOCC2)CN1c1ccc(Cl)cc1,refers to: total radioactivity,"beagle dog, male","oral, 20 mg/kg, 0 to 264 h",baseline: dose,fraction excreted in faeces,78%
Nc1ccn([C@@H]2O[C@H](CO)[C@@H](O)C2(F)F)c(=O)n1,,THU-treated rat plasma,"12.00 ng/mL, 2 months, -80 °C, frozen storage, low QC",,measured concentration,10.6 ± 1.3 ng/mL
C[N+]1(CC(=O)OC2CCCCCCCCCCC2)CCCCC1.[I-],metabolic stability,"human, liver microsomes","1 µM, pH 7.4",,half-life,3.4 min
CCc1c(-c2ccccc2)c(-c2ccccc2)nn1-c1ccccc1-c1cccc(OCC(=O)O)c1,,"rat, plasma","intravenous, 2 mg/kg",,Tmax,4.98 min
COc1ccc(-c2oc3c(OC)c(OC)c(OC)c(O)c3c(=O)c2OC)cc1OC,,"C57BL/6 mouse, male, feces","oral, 1% w/w in diet, 6 weeks, orange peel extract diet",baseline: content in orange peel,tissue to peel content ratio,101%
C[C@@H]1CCN(C(=O)CC#N)C[C@@H]1N(C)c1ncnc2[nH]ccc12,equilibrium dialysis,"control rats, fresh plasma","10 µg/mL, 24 h, 37 °C",,unbound fraction,0.769
CNCc1ccc(-c2[nH]c3cc(F)cc4c3c2CCNC4=O)cc1,,"human patients, plasma","oral, 240 mg twice daily, day 1, arithmetic mean",,Cmax,219 ng/mL
CC(C)[C@H](NC(=O)[C@@H]1CCCN1C(=O)[C@H](CCCNC(=N)N)NC(=O)[C@H](CS)NC(=O)[C@H](Cc1c[nH]c2ccccc12)NC(=O)[C@H](CCCNC(=N)N)NC(=O)[C@@H](Cc1ccccc1)NC(=O)[C@H](Cc1c[nH]cn1)NC(=O)[C@H](CCC(=O)O)NC(=O)[C@H](CS)NC(=O)[C@H](CS)NC(=O)[C@H](CCCCN)NC(=O)[C@@H]1CC(=O)N[C@@H](CCCNC(=N)N)C(=O)N[C@@H]([C@@H](C)O)C(=O)N[C@@H](CC(=O)O)C(=O)N[C@H](Cc2ccc(O)cc2)C(=O)N1)C(N)=O [technetium-99m labelled],,"female C57 mouse, B16/F1 melanoma, tumour","intravenous, dose not given, 2 h, with: NDP-MSH 10 µg co-injected",,tissue uptake,2.85 ± 1.43 %ID/g
CN(C)C(=N)N=C(N)N,,"Sprague-Dawley rat, male, liver","oral, 100 mg/kg, 24 h, single low dose",direction not given,hepatocyte vacuolization score,0
Cc1ccc(NC(=O)c2ccc(CN3CCN(C)CC3)cc2)cc1Nc1nccc(-c2cncc(-c3oncc3C)c2)n1,,"Parkinson's disease patients, plasma","oral, 50.0 mg once daily, day 7, 7-day dosing, mean",,dose-normalised AUC(0-inf),642 ng·h/mL/mg
CC(C)C[C@H](NC(=O)[C@H](CC(C)C)NC(=O)[C@@H](NC(=O)[C@H](Cc1ccccc1)NC(=O)[C@@H](Cc1c[nH]c2ccccc12)NC(=O)[C@@H](N)CCCCN)[C@H](c1ccccc1)c1c[nH]c2ccccc12)C(N)=O,RP-HPLC Kinetex Biphenyl,,acetonitrile/water TFA gradient,,HPLC retention,44.3 %B
